Published values gathered from unrelated publications.
Protocols differ between the studies behind these lines. Several values in a cell are separate wells, animals, samples, runs or records. ± marks the error that the study gave.
USP14: Ubiquitin carboxyl-terminal hydrolase 14 (USP14, Homo sapiens, UniProt P54578)
Gria2/Glutamate receptor 3: Gria2/Glutamate receptor 3 (Rattus norvegicus, UniProt P19491+P19492)
MAPK9: Mitogen-activated protein kinase 9 (MAPK9, Homo sapiens, UniProt P45984)
SLC6A9: Sodium- and chloride-dependent glycine transporter 1 (SLC6A9, Homo sapiens, UniProt P48067)
PPO3: PPO3 (Agaricus bisporus, UniProt C7FF04)

| Structure (SMILES) | tested on | assay | test system | setting | scale | quantity | result |
| --- | --- | --- | --- | --- | --- | --- | --- |
| CN(Cc1cc(C2CC2)on1)C(=O)c1cccc(-c2ccc3c(c2)CCO3)c1 | Acetyl-CoA synthetase (Cryptococcus neoformans, UniProt J9VFT1) | enzyme activity, inhibitor, coupled pyrophosphate | – | 488 nM | higher is more activity | reaction rate | 0.00167 a.u. |
| C#CCOC(=O)[C@@]1(C)C=C(C(=O)OC(C)(C)C)C(=O)CC1 | MAPK1 (Homo sapiens, UniProt P28482) | enzyme activity, D-SENSOR | – | 0.02032 µM, mean of replicates | – | normalized kinase activity | 1.06 |
| CC(=O)N[C@@H](Cc1ccc(O)cc1)C(=O)N[C@@H](CC(N)=O)C(=O)N1CCC[C@H]1C(=O)N[C@@H](Cc1ccccc1)C(=O)N[C@@H](CCC(=O)O)C(=O)N[C@@H](CCC(=O)O)C(=O)NCC(=O)NCC(N)=O | EH domain-containing protein 1, EH domain (Homo sapiens, UniProt Q9H4M9) | peptide binding, ITC | – | concentration not given, 0 mM NaCl | – | binding stoichiometry | 1.09 and 0.959 and 1.06 |
| CC(C)[C@@H]1NC(=O)[C@H](Cc2ccccc2)NC(=O)CSC[C@@H](C(N)=O)NC(=O)[C@H](CCC(=O)O)NC(=O)[C@H](CO)NC(=O)[C@H](Cc2c[nH]c3cccc(Cl)c23)NC(=O)[C@H](C2CCCCC2)NC(=O)[C@H](C(C)C)NC(=O)[C@H](Cc2ccc(O)cc2)NC(=O)[C@H](CC(=O)O)NC(=O)[C@H](Cc2c[nH]c3ccccc23)NC(=O)[C@H](Cc2ccc(N)nc2)NC(=O)[C@H](Cc2c[nH]c3ccc(Cl)cc23)NC(=O)[C@H](CCC(=O)O)NC1=O | Interleukin-1 receptor-like 2 (IL1RL2, Homo sapiens, UniProt Q9HB29) | reporter gene (SEAP), inhibitor, HEK-Blue IL-36R reporter | HEK-Blue IL-36R cells | 0.015 µM, 6 h, with: IL-36γ 0.3 ng/mL | – | remaining activity | 85.7% |
| O=C1c2ccccc2C(=O)c2c1oc1c3c(ccc21)OCN(CCCn1ccnc1)C3 | USP14 | enzyme activity, inhibitor | – | 17 µM | – | inhibition | 60% |
| COC(=O)Cc1cc2c(cc1C(=O)c1ccccc1)OCO2 | Gria2/Glutamate receptor 3 | glutamate-evoked current, whole-cell patch clamp | HEK-293T | concentration not given, weighted tau, 1 ms pulse, with: glutamate | – | deactivation time constant | 2.4 ± 0.2 ms |
| CNC1C[S+]2CC[S+]3CC[S+](C1)[Ru-4]321([N]=C=S)[n]2c3ccc(OC)cc3c3c4c(c5cc(F)c[n+]1c5c32)C(=O)NC4=O (stereo not drawn) | FLT3 ITD | KINOMEscan | – | 0.1 µM | reference: control | remaining binding | 35% |
| C#CCOC(=O)[C@@]1(C)C=C(C(=O)Nc2cccc(C(=O)Nc3ccc(C)c(Nc4nccc(-c5cccnc5)n4)c3)c2)C(=O)CC1 | MAPK9 | enzyme activity, inhibitor | – | 44.44 µM, unit not given | reference: vehicle | remaining activity | 0.044 |
| O=C(O)C1CCCN(CC=CC(c2ccc3ccsc3c2)(c2ccc3ccsc3c2)c2ccc3ccsc3c2)C1 (stereo not drawn) | SLC6A9 | cell-free assay | – | 1 µM | – | remaining signal | 82.5% |
| C[Si](C)(C)C[C@@H](CN)CC(=O)O | GABBR1 (Homo sapiens, UniProt Q9UBS5) | ligand displacement, radioligand | – | 75 µM | – | inhibition | 4% |
| Oc1cccc2c1NCCC2 | USP14 | enzyme activity, inhibitor | – | 17 µM | – | inhibition | 39% |
| C=CC(=O)N1CCCC(n2c(=O)c3ncccc3n(Cc3ccc(Oc4ccccc4)cc3)c2=O)C1 (stereo not drawn) | PCNA (Homo sapiens, UniProt P12004) | thermal proteome profiling | cell proteome | unit not given | reference: vehicle | melting temperature shift | 1.34 |
| Brc1ccccc1-c1cc(CN2c3ccccc3C=Cc3ccccc32)on1 | PPO3 | enzyme activity, inhibitor | – | concentration not given | – | apparent Km | 5.24 mM |
| CC[C@H](C)[C@@H](C(=O)N[C@@H](CC(C)C)C(=O)N[C@@H](CO)C(=O)N[C@@H](CO)C(=O)N[C@H](C(=O)N[C@@H](CC(N)=O)C(=O)N[C@H](C(=O)NCC(=O)N[C@@H](CO)C(=O)N[C@@H](CC(N)=O)C(=O)N[C@H](C(=O)N1C[C@H](O)C[C@H]1C(N)=O)[C@@H](C)O)C(C)C)[C@@H](C)O)N(C)C(=O)[C@H](C)NC(=O)CN(C)C(=O)[C@H](Cc1ccccc1)NC(=O)[C@H](CC(N)=O)NC(=O)[C@H](CC(N)=O)NC(=O)[C@H](CO)NC(=O)[C@H](CO)NC(=O)[C@H](CCCNC(=N)N)NC(=O)[C@H](Cc1c[nH]cn1)NC(=O)[C@H](CC(C)C)NC(=O)[C@H](Cc1ccccc1)NC(=O)[C@H](CCC(=O)O)NC(=O)[C@H](C)NC(=O)[C@H](CC(C)C)NC(=O)[C@H](CCCNC(=N)N)NC(=O)[C@H](CCC(N)=O)NC(=O)[C@@H](NC(=O)[C@H](C)NC(=O)[C@@H]1CSSC[C@H](NC(=O)[C@H](CCCNC(=N)N)NC(=O)CC[C@H](NC(=O)CCCCCCCCCCCCCCCCCCC(=O)O)C(=O)O)C(=O)N[C@@H](CC(N)=O)C(=O)N[C@@H]([C@@H](C)O)C(=O)N[C@@H](C)C(=O)N[C@@H]([C@@H](C)O)C(=O)N1)[C@@H](C)O | Calcitonin receptor (CALCR, Homo sapiens, UniProt P30988) | cAMP accumulation, agonist | COS-7 expressing CTR | – | reference: over native Tyr37 analogue | potency increase | ~7 fold |
| COC(=O)[C@@]1(C)C=C(C(=O)Nc2cccc(C(=O)Nc3ccc(Nc4nccc(-c5cccnc5)n4)c(C)c3)c2)C(=O)CC1 | MAPK9 | enzyme activity, inhibitor | – | 0.06097 µM, unit not given | reference: vehicle | remaining activity | 0.691 |
| O=C(O)Cc1cc2c(cc1C(=O)c1cccc(Cl)c1)OCO2 | Gria2/Glutamate receptor 3 | glutamate-evoked current, whole-cell patch clamp | HEK-293T | concentration not given, glutamate alone after washout, with: glutamate | – | current amplitude after recovery | 475 ± 32 pA |
| Cc1nn(-c2cccc(N)c2)c(=O)c2cnc(Nc3ccc(N4CCNCC4)cc3)nc12 | BRAF (Homo sapiens, UniProt P15056) | enzyme activity, inhibitor | – | – | – | IC50 | > 10 µM |
| O=C1c2sc(-c3ccc(N4CCC(CO)CC4)nc3F)nc2CCN1c1cccnc1 | TAR DNA-binding protein 43, aggregated (TARDBP, Homo sapiens, UniProt Q13148) | binding, surface plasmon resonance | brain-derived TDP-43 aggregates | 300 nM | – | SPR response | 4.57 RU |

| Structure (SMILES) | tested on | assay | test system | setting | scale | quantity | result |
| --- | --- | --- | --- | --- | --- | --- | --- |
| COC(=O)c1cc2cc3c(cc2oc1=O)N(CC(=O)NC(Cc1ccc(C)cc1)C(=O)NCC=CS(=O)(=O)c1ccccc1)CCC3 (stereo not drawn) | Cathepsin S (CTSS, Homo sapiens, UniProt P25774) | inhibitor | – | with: Z-Phe-Arg-AMC | – | kinact/Ki | 5510 M⁻¹ s⁻¹ |
| N#CN1CC[C@H](C(=O)Nc2nc3c(s2)CN(C(=O)CN=[N+]=[N-])CC3)C1 | Ran-specific GTPase-activating protein (Homo sapiens, UniProt P43487) | click pull-down LC-MS/MS | HEK293T cells | – | – | total spectral count | 1 |
| O=Cc1ccc(-c2cn([C@@H]3O[C@H](COP(=O)(O)OP(=O)(O)O[C@H]4O[C@H](CO)[C@H](O)[C@H](O)[C@H]4O)[C@@H](O)[C@H]3O)c(=O)[nH]c2=O)s1 | ABO (Homo sapiens, UniProt P16442, G268A/L266G) | substrate | – | concentration not given, sub-saturating | reference: UDP-Gal | relative activity | ~1% |
| CCCCCC=CC=C1C(=O)C=CC1CC=CCCCC(=O)O (stereo not drawn) | 60 kDa heat shock protein, mitochondrial (Homo sapiens, UniProt P10809) | competitive isoTOP-ABPP, measured: HSPD1 cysteine peptide | proteome, soluble, MDA-MB-231 | 100 µM, with: iodoacetamide probe | reference: DMSO over compound-treated, higher = stronger cysteine blockade | isoTOP-ABPP competition ratio | 1.5 |
| COC(=O)Cc1cc2c(cc1C(=O)c1ccc(Cl)cc1Cl)OCO2 | Gria2/Glutamate receptor 3 | glutamate-evoked current, whole-cell patch clamp | HEK-293T | concentration not given, pH 7.4, holding potential -60 mV, with: 10 mM glutamate | – | current amplitude | 185 ± 17 pA |
| OC[C@H]1O[C@@H](Oc2cc3c(O)cc(O)cc3[o+]c2-c2cc(O)c(O)c(O)c2)[C@H](O)[C@@H](O)[C@H]1O | PPO3 | fluorescence quenching | – | concentration not given, 338 K | – | number of binding sites | 1.35 |
| COc1cc(Nc2nccc(-c3cnn4nc(OC)ccc34)n2)cc(C(F)(F)F)c1 | PIK3CA (Homo sapiens, UniProt P42336, E545A) | binding | – | 1 µM | – | remaining binding | 89% |
| [O-][n+]1c2c([n+]([O-])c3ccccc31)CCC2 | USP14 | enzyme activity, inhibitor | – | 17 µM | – | inhibition | 26% |
| O=C(Nc1cc(C(=O)Nc2ccc(S(=O)(=O)O)cc2S(=O)(=O)O)cc(C(=O)Nc2ccc(S(=O)(=O)O)cc2S(=O)(=O)O)c1)Nc1cc(C(=O)Nc2ccc(S(=O)(=O)O)cc2S(=O)(=O)O)cc(C(=O)Nc2ccc(S(=O)(=O)O)cc2S(=O)(=O)O)c1 | P2X purinoceptor 1 (P2RX1, Homo sapiens, UniProt P51575) | antagonist, calcium influx | – | 3.16 nM, with: submaximal α,β-methylene ATP | reference: ionomycin response | calcium influx | 89.2% |
| COC1CN([C@H]2CC[C@H]([C@@]3(C)Oc4c(Cl)cc(C(=O)NCc5c(SC)cc(C)[nH]c5=O)c(C)c4O3)CC2)C1 | – | RNA-seq, measured: CD276 | human, whole blood | dose not given, 24 h | reference: pretreatment baseline | log2 fold change | 6.29 |
| COc1cc(OC)cc(C2C(C#N)=C(N)Nc3oc(C)nc32)c1 (stereo not drawn) | USP14 | enzyme activity, inhibitor | – | 17 µM | – | inhibition | 8% |
| CCCCCCCCCCCCC/C=C/C=O | Large ribosomal subunit protein uL4 (Homo sapiens, UniProt P36578) | competitive isoTOP-ABPP, measured: RPL4 cysteine peptide | Ramos soluble proteome | 100 µM, with: iodoacetamide probe | reference: DMSO over compound-treated, higher = stronger cysteine blockade | isoTOP-ABPP competition ratio | 1 |
| N=C(N)NCCS(=O)(=O)O | SLC6A6 (Homo sapiens, UniProt P31641, Y138A) | binding, microscale thermophoresis | – | 125 µM, room temperature, with: 50 nM labelled protein | higher = more binding | normalised MST signal | 0.0107 |
| Cc1cnc2nc1Nc1cccc(c1)COC/C=C/COCc1cc(ccc1OCCN1CCOCC1)N2 | SIK3 (Homo sapiens, UniProt Q9Y2K2) | cell-free assay | – | 0.1 µM | – | remaining signal | 100% |
| CC[C@H](C)[C@H](NC(=O)[C@@H](NC(=O)[C@@H](NC(=O)[C@@H](NC(=O)[C@H](CCCNC(=N)N)NC(=O)[C@H](CCC(=O)O)NC(=O)[C@H](CCC(=O)O)NC(=O)[C@H](C)NC(=O)[C@H](CCC(=O)O)NC(=O)CNC(=O)[C@H](C)NC(=O)CN)C(C)C)C(C)C)C(C)C)C(=O)N[C@@H](CC(=O)O)C(=O)N[C@@H](CC(=O)O)C(=O)N[C@@H](CC(=O)O)C(=O)N[C@@H](CCC(=O)O)C(=O)N[C@@H](CC(=O)O)C(=O)N[C@@H](CC(=O)O)C(=O)N[C@@H](CC(=O)O)C(=O)N[C@@H](C)C(=O)N[C@@H](CCC(=O)O)C(=O)N[C@@H](CC(N)=O)C(=O)N[C@@H](CO)C(=O)N[C@@H](CO)C(=O)N[C@@H](CO)C(=O)N[C@@H](CCCNC(=N)N)C(=O)N[C@@H](Cc1ccc(O)cc1)C(=O)O | Small ubiquitin-related modifier 1 (Homo sapiens, UniProt P63165, C52A) | isothermal titration calorimetry | – | pH 7.4, SUMO1 construct | – | -TΔS | -12 ± 0.1 kcal/mol |
| COc1ccc(C(/C=C/CN2CCCC(CO)C2)(c2ccc(OC)cc2)c2ccc(OC)cc2)cc1 (stereo not drawn) | SLC6A9 | cell-free assay | – | 1 µM | – | remaining signal | 83.8% |
| CC(=O)N(C1=C(O)C(=O)c2ccccc2C1=O)c1ccccc1 | USP14 | enzyme activity, inhibitor | – | 17 µM | – | inhibition | 32% |
| CC(=O)NCCN(c1nc(N2CC(Oc3ccccc3)C2)nc(N2CC3C(CCOc4cc(-c5scnc5C)ccc4CNC(=O)[C@@H]4C[C@@H](O)CN4C(=O)[C@@H](NC(=O)C4(F)CC4)C(C)(C)C)C3C2)n1)C(C)C (stereo partly drawn) | VHL/BRD9 (Homo sapiens, UniProt P40337+Q9H8M2) | BRD9 degradation, degrader, HiBiT | HEK293T BRD9-HiBiT | 15 h | – | Dmax | 80% |
